Published values collected from several papers.
Each line is one published result; not all experiments were run side by side.

CCCN(O)N=Nc1ccc(S(=O)(=O)Nc2onc(C)c2C)cc1 — inhibition (DPPH scavenging, absorbance; 20 µg/mL): 3.45%
CC[C@H]1OC(=O)[C@H](C)[C@@H](O[C@H]2C[C@@](C)(OC)[C@@H](O)[C@H](C)O2)[C@H](C)[C@@H](O[C@@H]2O[C@H](C)C[C@H](N(C)C)[C@H]2O)[C@](C)(OC)C[C@@H](C)C(=O)[C@H](C)[C@@H](O)[C@]1(C)O — inhibition (Helicobacter pylori; microbial growth, broth dilution; 1.95 µg/mL): 100%
O=C(Nc1ccc(Oc2nnc(-c3ccc(Cl)cc3)c3ccccc23)cc1)c1ccccc1 — cell death (MCF7; cell growth or viability, MTT; 1.25 µM): 95.3%
CCN(O)N=Nc1ccc(S(=O)(=O)Nc2cc(C)on2)cc1 — inhibition (DPPH scavenging, absorbance; 60 µg/mL): 20.9%
COc1cc(-c2cc(=O)c3c(O)cc(O)cc3o2)ccc1O — inhibition (Helicobacter pylori; microbial growth, broth dilution; 1.95 µg/mL): 73.2%
CN(O)N=Nc1ccc(S(=O)(=O)Nc2nccs2)cc1 — inhibition (DPPH scavenging, absorbance; 300 µg/mL): 30.5%
CCCCn1cnc2ccc(-c3ccc(NC(=O)NCCc4ccccc4)nc3)cc2c1=O — IC50 (NCI-H1975; cell growth or viability, CCK-8; 72 h): 3.69 µM
CC(=NNC(=O)c1ccccc1Br)c1ccc(Nc2nnc(-c3ccc(Cl)cc3)c3ccccc23)cc1 — cell death (HepG2; cell growth or viability, MTT; 0.625 µM): 78.8%
Cc1cc(C)c(C#N)c(SCC(=O)Nc2ccccc2)n1 — EC50 (Trypanosoma brucei; parasite growth, resazurin; RHODESIENSE): > 64 µM
CCCN(O)N=Nc1ccc(S(=O)(=O)Nc2nccs2)cc1 — inhibition (DPPH scavenging, absorbance; 20 µg/mL): 10.6%
S=C(Nc1ccccc1)Nc1ccc(Oc2nnc(-c3ccc(Cl)cc3)c3ccccc23)cc1 — cell death (HepG2; cell growth or viability, MTT; 5 µM): 94.7%
C=C[C@@]1(C)C=C2CC[C@@H]3[C@](C)(CCC[C@@]3(C)C(=O)O)[C@H]2CC1 — inhibition (Helicobacter pylori; microbial growth, broth dilution; 3.9 µg/mL): 62.5%
O=C(Nc1ccccc1)Nc1ccc(Oc2nnc(-c3ccc(Cl)cc3)c3ccccc23)cc1 — cell death (HepG2; cell growth or viability, MTT; 0.156 µM): 81.3%
CCCCn1cnc2ccc(-c3ccc(NC(=O)Nc4ccc(Cl)cc4)nc3)cc2c1=O — IC50 (HCC827; cell growth or viability, CCK-8; 72 h): 1.6 µM
CC(=NNC(=O)c1ccccc1)c1ccc(Nc2nnc(-c3ccc(Cl)cc3)c3ccccc23)cc1 — cell death (HepG2; cell growth or viability, MTT; 5 µM): 97.3%
CN(Cc1ccc(C2(C(F)(F)F)CC2)cc1)Cc1cccc2ccccc12 — inhibition zone (Trichophyton mentagrophytes; microbial growth, disc diffusion; ATCC18748; 0.002 µg/mL, 72 h): 17 mm
COc1ccnc(SCC(=O)c2ccccc2)c1C#N — EC50 (Trypanosoma brucei; parasite growth, resazurin; RHODESIENSE): 42.1 µM
Cc1cccc(N(O)N=Nc2ccc(S(=O)(=O)Nc3onc(C)c3C)cc2)c1 — inhibition (DPPH scavenging, absorbance; 20 µg/mL): 14.6%
CC(=NNC(N)=S)c1ccc(Nc2nnc(-c3ccc(Cl)cc3)c3ccccc23)cc1 — viability (HepG2; cell growth or viability, MTT; 2.5 µM, 24 h): 8.13%
Cc1noc(NS(=O)(=O)c2ccc(N=NN(O)c3ccccc3)cc2)c1C — inhibition (DPPH scavenging, absorbance; 20 µg/mL): 7.96%
COc1cccc(NC(=O)Cn2cc(COc3ccc(-c4nc5ccccc5c(=O)n4Nc4ccc([N+](=O)[O-])cc4[N+](=O)[O-])cc3OC)nn2)c1 — inhibition (DPPH scavenging, absorbance; 100 µM): 19.1%
Cc1cc(C)c(C#N)c(OCC(=O)c2ccccc2)n1 — EC50 (Trypanosoma brucei; parasite growth, resazurin): 44.1 µM
CCCN(O)N=Nc1ccc(S(=O)(=O)Nc2cc(C)on2)cc1 — inhibition (DPPH scavenging, absorbance; 120 µg/mL): 20.2%

A few entries again:
C=C[C@@]1(C)C=C2CC[C@@H]3[C@](C)(CCC[C@@]3(C)C(=O)O)[C@H]2CC1 — inhibition (Helicobacter pylori; microbial growth, broth dilution; 3.9 µg/mL): 62.5%
S=C(Nc1ccccc1)Nc1ccc(Oc2nnc(-c3ccc(Cl)cc3)c3ccccc23)cc1 — cell death (HepG2; cell growth or viability, MTT; 5 µM): 94.7%
CCCCn1cnc2ccc(-c3ccc(NC(=O)NCCc4ccccc4)nc3)cc2c1=O — IC50 (NCI-H1975; cell growth or viability, CCK-8; 72 h): 3.69 µM
